Assay results collected from several papers.
Each line is one published result; not all experiments were run side by side. Values joined by “and” are separate records of one study, mostly repeats; a detail may differ. ± gives the spread as reported.

For `COc1ncc(-c2nc3c(n2C(C)C)[C@H](c2ccc(Cl)cc2)N(c2cc(Cl)cn(C)c2=O)C3=O)c(OC)n1`, “AUC(0-t) geometric mean” read 4720 ng·h/mL (human patients, plasma; oral, 45 mg, 0-24 h, low-dose arm, cycle 2 day 1).
`O=C(Nc1ccc(OC(F)(F)Cl)cc1)c1cnc(N2CC[C@@H](O)C2)c(-c2ccn[nH]2)c1` — result for “grade ≥3 event rate”: 6% (per laboratory record, item: platelet decrease; human patients; oral, dose not given).
`C[C@@H]1COCCN1c1cc(C2([S@](C)(=N)=O)CC2)nc(-c2cc[nH]c3nccc2-3)n1` has a Rash incidence of 16.7% (Japanese advanced solid tumour patients; oral, 160 mg twice daily, any grade).
`CCc1cc(C(=O)NC)c2nccc(N3CCc4c(cc(Cn5ccnc5)cc4-c4cn(C)nc4C(F)(F)F)C3=O)c2c1` has a brain weight of 1.81 ± 0.072 g (Sprague Dawley rat; oral, 50 mg/kg once daily, 7 days).
Under “subjects with Dizziness”, `C[C@H]1CN(C(=O)CC#N)[C@]12CCN(c1ncnc3[nH]ccc13)C2` is recorded as 0% (healthy human; oral, 12 mg single).
For `COc1c(N2C[C@@H]3CCCN[C@@H]3C2)c(F)cc2c(=O)c(C(=O)O)cn(C3CC3)c12`, “QTcI change from baseline” read 0.4 ms (healthy volunteers; oral, 400 mg single dose, day 5, 1.50 h).
`CN1C(=O)[C@@H](NC(=O)c2nnc(Cc3ccccc3)[nH]2)COc2cccnc21` gave a terminal half-life of 377 min (human, plasma; oral, 100 mg once daily, day 14, geometric mean).
Under “subjects with adverse event”, `CC(C)(C(=O)N1CCOc2c(C#N)cncc2C1)C(F)F` is recorded as 0% (item: conjunctival hyperaemia; human; oral, 20 mg twice daily, 14 days, multiple ascending dose).
The clearance of `C[C@]12C[C@@]34C=CC(=O)[C@@](C)(CCC(=O)Nc5c(O)ccc(C(=O)O)c5O)[C@@H]3[C@H](C[C@@H]1C4)O2` is reported as 16 mL/min/kg (C57BL/6 mice, male, plasma; intravenous, 3 mg/kg).
`CCO[C@H]1CCN(Cc2c(OC)cc(C)c3[nH]ccc23)[C@H](c2ccc(C(=O)O)cc2)C1`: “incidence of haematuria” 0% (PNH patients, active haemolysis; oral, 50 mg, 4 weeks, treatment).
`N#CCc1ccccc1C#Cc1ccc(CCC(=O)O)cc1` — result for “change in mitochondrial membrane potential”: -2% (10 µM, Cerep high-content toxicity).
`Cc1ccc2c(c1)nc(/C=C/c1cccc3cccnc13)n2-c1cccc(OCCCN2CCN(C)CC2)c1` gave a plasma concentration of 267 ± 63.4 nM (male Sprague-Dawley rat; oral, 10 mg/kg, 2 h).
The Tmax of `O=C(O)CCC(=O)O.[2H]C([2H])([2H])Oc1cc(C)c2[nH]ccc2c1CN1CC[C@@H](C2CC2)C[C@H]1c1ccc(C(=O)O)cc1` is reported as 4 h (LC-MS/MS, median; human, plasma; 50 mg, single dose, fasting).
`CCCCCCCCCCCCCCCC(=O)N[C@@H](CCC(=O)NCCCC[C@@H]1NC(=O)[C@H]([C@@H](C)CC)NC(=O)[C@@H](NC(=O)[C@@H]2CCCN2C(=O)[C@H](Cc2ccccc2)NC(=O)[C@H](Cc2c[nH]cn2)NC(=O)[C@@H](NC(=O)[C@H](CC(=O)O)NC(=O)CC(C)C)[C@@H](C)O)CSSC[C@@H](C(=O)N[C@@H](CCCCN)C(N)=O)NC(=O)CNC(=O)[C@H](CCCCN)NC(=O)[C@H](CO)NC(=O)[C@H](CCCNC(=N)N)NC(=O)[C@@H]2CCCN2C(=O)[C@H](CCC(=O)O)NC(=O)[C@H](Cc2ccccc2)NC1=O)C(=O)O` gave a Vz/F of 18.2 ± 7.54 L (healthy volunteers, plasma; subcutaneous, 10 mg single, lyophilised formulation).
For `CC[C@H](C)[C@H](NC(C)=O)C(=O)N[C@H]1CSSC[C@@H](C(=O)N[C@H](C(N)=O)[C@@H](C)O)NC(=O)[C@H](CCCNC(=N)N)NC(=O)[C@H](Cc2c[nH]cn2)NC(=O)[C@H](C)NC(=O)CNC(=O)[C@H](Cc2c[nH]c3ccccc23)NC(=O)[C@H](CC(=O)O)NC(=O)[C@H](CCC(N)=O)NC(=O)[C@H](Cc2cn(C)c3ccccc23)NC(=O)[C@H](C(C)C)NC1=O`, the retention factor was 5.901 ± 0.006 (RP-HPLC, C18; 28% acetonitrile isocratic; pH 7.4).
Under “lanthanide tissue concentration”, `CC(C(=O)NCC(=O)NCC(CNC(=O)CNC(=O)C(C)N1CCN(CC(=O)[O-])CCN(CC(=O)[O-])CCN(CC(=O)[O-])CC1)(CNC(=O)CNC(=O)C(C)N1CCN(CC(=O)[O-])CCN(CC(=O)[O-])CCN(CC(=O)[O-])CC1)CNC(=O)CNC(=O)C(C)N1CCN(CC(=O)[O-])CCN(CC(=O)[O-])CCN(CC(=O)[O-])CC1)N1CCN(CC(=O)[O-])CCN(CC(=O)[O-])CCN(CC(=O)[O-])CC1.[Gd+3].[Gd+3].[Gd+3].[Gd+3]` (stereo not shown) is recorded as < 0.007 nmol/g (cynomolgus monkey, cerebellum; dose not given, day 58, PK group).
The fetal accumulation of `CCCOc1ccc(-c2ccc(C#N)cc2)cc1` is reported as 15.8 ± 5.7 ng/g (Sprague-Dawley rat, female, fetus; 5000 ng/mL in perfusate, 50 (unit not given), high dose, mixture of 21 LCMs).
For `C=CCN1CC(=O)N2[C@@H](Cc3ccc(O)cc3F)C(=O)N(Cc3cccc(N4CC(N5CCN(CC)CC5)C4)n3)C[C@@H]2N1C(=O)NCc1ccccc1`, the treatment-related vomiting was 0% (advanced solid tumour patients; oral, 10 mg twice daily, grade ≥3, dose-escalation).
`NC1(C(=O)N[C@@H](CCO)c2ccc(Cl)cc2)CCN(c2nc[nH]c3nccc2-3)CC1`: “incidence of Pyrexia” 0% (metastatic CRPC patients; 480 mg b.i.d., any grade, treatment-related, with: enzalutamide 160 mg daily).
For `C[C@@H](Oc1ccc(S(C)(=O)=O)cc1C(=O)N1C[C@@H]2C[C@]2(c2cc(C(F)(F)F)on2)C1)C(F)(F)F`, the urinary excretion was 8.7% (human, urine; oral, 25 mg; reference: dose).
`CC1(C)CC[C@]2(NC(=O)C(C)(F)F)CC[C@]3(C)[C@H](C(=O)C=C4[C@@]5(C)C=C(C#N)C(=O)C(C)(C)[C@@H]5CC[C@]43C)[C@@H]2C1`: “trough plasma concentration” 38.2 ng/mL (human, plasma; oral, 150 mg once daily, day 23 predose, median).
`FC(F)(F)c1ccc(CNc2ccc(Cc3c[nH]c4ncc(Cl)cc34)cn2)cn1`: “treatment-related adverse events” 6% (item: periorbital oedema; human, advanced solid tumours, non-TGCT cohort; oral, 1000 mg/day, any grade).
`O=C(Nc1cnccc1Cl)N1CCN(Cc2ccc3c(c2)OC(F)(F)O3)CC1`: “adverse event incidence” 66.7% (item: Headache; human healthy young women; 100 mg, multiple dose).
`Cc1cc(-c2nccc3c2ccn3CC(=O)Nc2ccc(-c3cnccn3)cn2)ccn1` — result for “subjects with Headache adverse event”: 0% (human; 5 mg once daily, multiple ascending dose).
For `CC#CC(=O)N1CC[C@@H](n2c(=O)n(-c3ccc(Oc4ccccc4)cc3)c3c(N)ncnc32)C1`, the AUC(0-12h) was 2590 ± 179 ng·h/mL (human, fasting, plasma; oral, 160 mg once daily, cycle 1 day 28).
For `O=C(Nc1nc2cccc(-c3ccc(CN4CCS(=O)(=O)CC4)cc3)n2n1)C1CC1`, “treatment-emergent adverse events” read 0% (item: cardiac disorders; human rheumatoid arthritis patients; oral, 150 mg once daily, 4 weeks, regardless of relatedness).
`Cc1nc(-c2ccc(OCC(C)C)c(C#N)c2)sc1C(=O)O` gave a body weight of 41.6 g and 36.8 g and 38.8 g and 34.6 g and 40.8 g and 45 g (KM mouse, chronic hyperuricaemia model; dose not given, day 29).
For `Cc1ccc([C@@H]2O[C@H](CO)[C@@H](O)[C@H](O)[C@H]2O)cc1Cc1ccc(-c2ccc(F)cc2)s1`, “urinary phosphate excretion change” read 55.6 mg (item: inorganic phosphorus; Japanese type 2 diabetes patients; 200 mg, day 4, 24 h urine collection; reference: baseline).
Under “geometric mean AUC(0-last)”, `CCCCC[C@H](O)CC[C@@H]1[C@H]2Cc3cccc(OCC(=O)O)c3C[C@H]2C[C@H]1O` is recorded as 0.41 ng·h/mL (LC-MS/MS; Japanese PAH patients, plasma; inhaled, 54 µg, no background PAH therapy).
Under “subjects with adverse event”, `CNC(=O)c1ccc(-c2cnc3ncc(Cc4ccc5ncccc5c4)n3n2)cc1F` is recorded as 7.7% (healthy human subjects; oral, 400 mg, Nausea, all grades, all causality, with: rifampicin 600 mg/day).
The SUV of `CNc1ccc(-c2nc3ccc(O)cc3s2)cc1` [carbon-11 labelled] is reported as 0.532 ± 0.294 (ex vivo biodistribution; B6SJL mouse, normal, blood; intravenous, 30 min).
For `OC[C@H]1O[C@@H](c2ccc(F)c(Cc3cc4ccccc4s3)c2)[C@H](O)[C@@H](O)[C@@H]1O`, “hypoglycaemia adverse events” read 8 % patients (Japanese type 1 diabetes patients; oral, 100 mg/day, day 14).
The concentration of `O=C(N[C@H](Cc1c[nH]c2ccccc12)C(=O)Nc1ccncc1)c1ccc(N2CCN(c3ccc(F)c(F)c3)CC2)cc1F` is reported as 110 nM (Swiss Webster mouse, female, fat; oral, 50 mg/kg, 2 h, 20% HPβCD vehicle).
For `C=CC(=O)NC1CCN(c2ncc3ncnc(Nc4ccc(Oc5ccc6c(c5)ncn6C)c(C)c4)c3n2)CC1`, the blood-to-plasma ratio was 0.767 (item: total radioactivity; healthy male human, whole blood and plasma; oral, 60 mg, 1 h, geometric mean).
Under “treatment-emergent adverse events”, `O=C(COc1ccc(Cl)cc1)NC12CC(c3nnc([C@H]4C[C@@H](OC(F)(F)F)C4)o3)(C1)C2` is recorded as 50% (at least 1 event; human, both sexes; oral, 100 mg, single ascending dose, fed; reference: subjects).
The dose-normalised AUC of `CC[C@H](C)[C@H](NC(=O)[C@H](Cc1ccccc1)NC(=O)[C@H](CCC(=O)O)NC(=O)[C@H](CCCNC(=N)N)NC(=O)[C@H](C)NC(=O)[C@H](C)NC(=O)[C@H](CCC(N)=O)NC(=O)[C@H](CCC(=O)O)NC(=O)[C@H](CCC(=O)O)NC(=O)[C@H](CC(C)C)NC(=O)[C@H](Cc1ccc(O)cc1)NC(=O)[C@H](CO)NC(=O)[C@H](CO)NC(=O)[C@@H](NC(=O)[C@H](CC(=O)O)NC(=O)[C@H](CO)NC(=O)[C@@H](NC(=O)[C@H](Cc1ccccc1)NC(=O)[C@@H](NC(=O)CNC(=O)[C@H](CCC(=O)O)NC(=O)[C@H](C)NC(=O)CCc1c[nH]cn1)[C@@H](C)O)[C@@H](C)O)C(C)C)C(=O)N[C@@H](C)C(=O)N[C@@H](Cc1c[nH]c2ccccc12)C(=O)N[C@@H](CC(C)C)C(=O)N[C@H](C(=O)N[C@@H](CCCNC(=N)N)C(=O)NCC(=O)N[C@@H](CCCNC(=N)N)C(=O)N[C@@H](CCCCNC(=O)COCCOCCNC(=O)COCCOCCNC(=O)CC[C@H](NC(=O)CCCCCCCCCCCCCCCCC(=O)O)C(=O)O)C(=O)O)C(C)C` is reported as 110 kg·h/L (UPLC-MS; rat, plasma; subcutaneous, 20 nmol/kg).
`C[C@@H](Nc1cc(F)cc(F)c1)c1cc(C(=O)N(C)C)cc2c(=O)cc(N3CCOCC3)oc12` — result for “Cmax geometric mean”: 787 ng/mL (human, plasma; oral, 240 mg, day 1 single dose).
`Cc1ccc(O)c(-n2nc3ccccc3n2)c1` — result for “daily dermal uptake, percentile”: 2710 ng/kg body weight/day (exposure assessment; human, age 16-21 years; concentration not given, spray sunscreen, 95th percentile).
`Cc1nn(CC(F)(F)F)cc1Nc1ncc(Br)c(NCCCNC(=O)C2CCC2)n1` gave an effective permeability of 3.73e-06 cm/s (PAMPA; PBS; 5 h, pH 7.4).
`COc1cc(C(=O)NC2CCN(C)CC2)c(F)cc1Nc1ncc(C(F)(F)F)c(Oc2cccc3c2C(=O)N(C)C3)n1`: “dose-normalised AUC(tau) at steady state” 97.8 nmol·h/L per mg (human patients, plasma; oral, 50 mg once daily repeated, geometric mean).

Some of these lines once more:
`O=C(Nc1cnccc1Cl)N1CCN(Cc2ccc3c(c2)OC(F)(F)O3)CC1`: “adverse event incidence” 66.7% (item: Headache; human healthy young women; 100 mg, multiple dose).
`Cc1cc(-c2nccc3c2ccn3CC(=O)Nc2ccc(-c3cnccn3)cn2)ccn1` — result for “subjects with Headache adverse event”: 0% (human; 5 mg once daily, multiple ascending dose).
For `CC#CC(=O)N1CC[C@@H](n2c(=O)n(-c3ccc(Oc4ccccc4)cc3)c3c(N)ncnc32)C1`, the AUC(0-12h) was 2590 ± 179 ng·h/mL (human, fasting, plasma; oral, 160 mg once daily, cycle 1 day 28).
For `O=C(Nc1nc2cccc(-c3ccc(CN4CCS(=O)(=O)CC4)cc3)n2n1)C1CC1`, “treatment-emergent adverse events” read 0% (item: cardiac disorders; human rheumatoid arthritis patients; oral, 150 mg once daily, 4 weeks, regardless of relatedness).
`Cc1nc(-c2ccc(OCC(C)C)c(C#N)c2)sc1C(=O)O` gave a body weight of 41.6 g and 36.8 g and 38.8 g and 34.6 g and 40.8 g and 45 g (KM mouse, chronic hyperuricaemia model; dose not given, day 29).
For `Cc1ccc([C@@H]2O[C@H](CO)[C@@H](O)[C@H](O)[C@H]2O)cc1Cc1ccc(-c2ccc(F)cc2)s1`, “urinary phosphate excretion change” read 55.6 mg (item: inorganic phosphorus; Japanese type 2 diabetes patients; 200 mg, day 4, 24 h urine collection; reference: baseline).
